Results from different studies.
Each numbered part is a random draw from the data of one study; scales do not carry over between parts.

Series 1
Target: RING finger protein unkempt homolog, zinc fingers 1-6, GST-SBP tag (UNK, Homo sapiens, UniProt Q9C0B0, residues 30-357)
Method: RNA Bind-n-Seq
Molecule type: RNA
Medium: in vitro
Tested at: not given
Notes: RNA with constant flanks, human-mouse chimeric sites, ends assumed
Reference: input RNA pool
Reading: higher = stronger binding
Residues (chain): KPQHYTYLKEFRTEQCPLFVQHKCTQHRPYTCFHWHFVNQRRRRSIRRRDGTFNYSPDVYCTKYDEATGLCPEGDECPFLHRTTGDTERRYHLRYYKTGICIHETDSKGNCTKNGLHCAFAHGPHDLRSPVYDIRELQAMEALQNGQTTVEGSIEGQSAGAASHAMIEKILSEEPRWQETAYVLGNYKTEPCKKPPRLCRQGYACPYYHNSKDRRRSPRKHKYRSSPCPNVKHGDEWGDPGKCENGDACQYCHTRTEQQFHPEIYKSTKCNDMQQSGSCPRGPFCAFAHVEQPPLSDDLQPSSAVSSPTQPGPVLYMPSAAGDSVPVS
Sequence | bound/input enrichment
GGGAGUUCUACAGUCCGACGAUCAAAAUAGACUAUGGCGAGUACAUGGAUAAAAACAAUGUGAGGCGGCAAGCAACAACAAUCAUAGCUGAUAACAUUAUAUUUCUGAGUGACCAGACAAAAGAGAAGGAAUAGAACGGAUGACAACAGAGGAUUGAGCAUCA | 3.03 ratio
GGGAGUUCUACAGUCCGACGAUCUAAGUCCUGUGCCAGCAAUUUAUCCCAAAAGUUUUAAAUUCUGGACCAAUAGUGUUUAUCUUUAGAAUAUUGUAUCCAAUACUUUGCCUAGUAUGUAACUCACUCUUACUGAUAAUAAAACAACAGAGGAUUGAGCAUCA | 23.6 ratio
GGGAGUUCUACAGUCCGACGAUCUUACCCGAGAACGAGGAUGAGCUGGAGAGCACCAAUAGGCGCUACACCAAGAGGGACUGUAGCACUUUCCUCAGAACUAGUGAGACGGGCAUCGUGGACCAGGUCAUGGUCACUCUCAACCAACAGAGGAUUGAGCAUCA | 0.621 ratio
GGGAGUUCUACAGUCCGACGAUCCAGGGCAUUAUUUCUCGUGCUGUUAGACACCUGUUCAAGAGUAUUGAUGAGAAAAAGACCUCAGCGAUUAAAAAUGGGCUGCCCCCUCCUGAAUUCAAAGUGAAUGCCCAGUUCCUAGAGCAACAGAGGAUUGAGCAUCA | 0.183 ratio
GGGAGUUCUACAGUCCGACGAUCCAGGGCAUCAUCUCUCGUGCUGUUAGACACCUUUUUAAGAGUAUUGAAGAAAAAAAAACCUCAGCGAUUAAAAACGGGCUGCCCCCUCCUGAAUUCAAAGUGAAUGCCCAGUUCCUAGAGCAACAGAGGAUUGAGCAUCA | 0.576 ratio
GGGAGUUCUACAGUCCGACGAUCGUGCCCUCCUUCUCGCUGCGGAGCCCGAGCUGGGAACCAUUCCGGGACUGGUACCCUGCACACAGCCGCCUCUUCGAUCAAGCUUUCGGGGUGCCCCGGUUGCCCGAUGAGUGGUCGCAGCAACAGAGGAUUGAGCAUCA | 0.0917 ratio
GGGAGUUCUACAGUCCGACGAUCGUAUACGGUUAUCGAGGAAAGGACUGUAGAGCUAAUGUAUACCUGCUUCCCACAGGGGAGAUAGUUUAUUUUAUCGCCUCAGUGGUAGUCCUGUUUAAUUAUGAGGAGAGGACUCAGCGACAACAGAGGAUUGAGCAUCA | 0.317 ratio
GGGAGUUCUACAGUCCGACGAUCUGACAAGCACGAGCAUCAGCCAUGCCUUUCCUUGACAUACAGAAAAAGCUGGGCAUCAGCCUGGACCGGCACUUUAUGUUCCUAAGCGCAGAACAGCCCUAUAAGAACGCCGCUCGGUGCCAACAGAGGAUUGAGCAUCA | 0.0881 ratio
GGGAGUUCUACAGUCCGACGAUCCUGGCCUGGCCCUCCCCAGGGGCCUCCUUUCGUAUAGUCACUGCUUCUGCAUCAGAUACUUUCAGCUGCAACUCCCUGCAGGGUGGGGCACCCAUUUCAGGCAGAAGGUUUUGGUACCCUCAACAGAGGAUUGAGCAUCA | 0.334 ratio
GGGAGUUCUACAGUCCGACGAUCAGAGAUAAGACAUCCAGGAACAUGCGAGGCUCCCGGAUGAAUGGGUUGCCUAGCCCCACUCACAGCGCCCACUGUAGCUUCUACCGAACCAGAACCUUGCAGGCAUUAAGUAAUGAGAAGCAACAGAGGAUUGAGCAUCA | 0.161 ratio
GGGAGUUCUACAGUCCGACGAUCAACGUGGAGUUGAGUUCGCUGGCCCGGCUUCCCAGCUUAAAUAAACUCCGGAAGUUGGAACUUAGUGACAAUAUAAUUUCUGGAGGCUUGGAAGUCCUGGCAGAGAAAUGUCCAAAUCUUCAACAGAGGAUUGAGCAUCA | 0.208 ratio

Series 2
Target: Sal-like protein 4, full length isoform B (SALL4, Homo sapiens, UniProt Q9UJQ4-2, residues 1-616)
Method: universal PBM
Molecule type: double-stranded DNA, one strand shown
Medium: in vitro
Tested at: not given
Notes: 8-mer, flanks averaged, mean of replicates
Reading: higher = stronger binding
Sequence | E-score
AACTAATT | 0.292
GTCGTATA | 0.214
GCACGATA | 0.139
CAGCGTGG | -0.188
GAGTTGAA | 0.0335
GGCAGAAC | -0.0588
GAGACGAA | -0.0286
TATTGGGA | 0.21
ACTCGCAC | -0.293
CCGGGGAC | -0.282
ATAACTCC | 0.273
TCACGCCA | -0.0414
GTTCAAAA | -0.0157
GCAAGGCC | -0.283
GATTGACC | -0.0811
GTTAAGGA | 0.01
AGTGGTGC | -0.214
AGTCATTC | 0.0861
ACGACCAT | -0.103
GAGGTTAC | -0.0977
GAGCATGA | -0.0538
CCGCATCG | -0.358

Series 3
Organism: Saccharomyces cerevisiae
Effect on: binding
Method: competitive growth deep sequencing
Molecule type: peptide
Strain: cyclin E1-Cln2 fusion strain
Notes: peptide tiling library
Reading: direction not given
Molecule | enrichment score
RRVLCFDS | 0.311
LRRQLSFSED | 0.907
KVKRRLDLDIDGLQKE | 0.674
SCCKRKLVVGNGPEGP | -1.12
LRRKLFLDGNGSIS | -1.04
PPKPLKKLRFDIEGSD | -0.102
NFETPEAETPIRSPFK | 1.4
PQWPCGKHKRVLIFAS | -0.628
GAEELEDLVHFSVSEL | 2.2
DWDTVERQEEEAPSWD | 2.16
GFGFLLFICKLTF | 0.46
VSRNLRSSLKSSLHTL | -1.88
RKLDLEGIGR | -0.358
RKLHFEDEVT | 2.59
TTTTSPRTPPPLTVQD | 1.19
ARKRLELGNLGNPQ | -0.965
PPTFLSTGEIHAFLSS | -0.0906
NNIRKALSFDNRGEEH | -1.69

Series 4
Target: Interferon regulatory factor 3, full length, phosphomimetic (IRF3, Homo sapiens, UniProt Q14653, residues 1-427, S386D/S396D/S398D/S402D/T404D/S405D)
Method: protein-binding microarray
Molecule type: double-stranded DNA, one strand shown
Medium: in vitro
Tested at: 2540 nM top
Notes: 60-bp whole probe
Together with: salmon DNA 0.4 mg/ml
Reference: random background probes
Reading: higher = stronger binding
Constant ends, left off below: GCCTAGCAC … GTCTTGATTCGCTTGACGCTGCTG
Construct (chain): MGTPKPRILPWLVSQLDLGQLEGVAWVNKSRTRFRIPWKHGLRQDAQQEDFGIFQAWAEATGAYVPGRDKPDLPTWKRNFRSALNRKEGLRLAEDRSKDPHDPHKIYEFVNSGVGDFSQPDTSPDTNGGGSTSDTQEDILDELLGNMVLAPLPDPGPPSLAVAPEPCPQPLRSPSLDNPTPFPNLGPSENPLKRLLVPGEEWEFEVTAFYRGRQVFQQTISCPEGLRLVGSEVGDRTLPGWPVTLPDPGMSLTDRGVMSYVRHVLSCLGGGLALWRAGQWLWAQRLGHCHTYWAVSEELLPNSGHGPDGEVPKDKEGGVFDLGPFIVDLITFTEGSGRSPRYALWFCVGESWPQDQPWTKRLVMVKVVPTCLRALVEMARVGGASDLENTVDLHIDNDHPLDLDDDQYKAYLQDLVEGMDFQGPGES
Sequence | fitted relative affinity
GATGATCTCAGTCTCGAGACGTGCTAG | 0.27 z-score
TTAGGTTACGGTTTCGGTTAGTGCTAG | 5.51 z-score
TGGTAATTCTTTGCTCATTTTGTGCTA | 0.0459 z-score
TTAGGGCTGGACACTGGGTTAGTGCTA | -1.23 z-score
TCACCAATCTCTCTTCAACTGTGCTAG | 2.42 z-score
TTAGGACTGCTTTTCCGTTAGTGCTAG | 0.0185 z-score
AAATGTGTTAGAAACAGGTTGTGCTAG | 0.216 z-score
GACGACCTCAGTATCGAGACGTGCTAG | -0.0645 z-score
GACGGACTGGACACTCGGGACGTGCTA | -0.666 z-score
TATCCTTCCCCTCTAGGTTCGTGCTAG | 2.91 z-score
GACGGACTGATACTGCTGACGTGCTAG | -0.269 z-score
TCACATCTGGGTATTTTACTGTGCTAG | 0.388 z-score
TTAGATTTCAGACGGGATTAGTGCTAG | -0.059 z-score
TCAATTTTTTTTCACTAACTGTGCTAG | 0.668 z-score
GACGAATTCAGTCTCGAGACGTGCTAG | 0.868 z-score
TTAGGTATCGGACTGGGATAGTGCTAG | 1.16 z-score
TTAGGTCTCGGTAACGGTTAGTGCTAG | -0.2 z-score
AAGGTATTATTTATTGTAGCGTGCTAG | 0.38 z-score
TCAAGGTTCTCTTTTATACTGTGCTAG | 1.39 z-score
TTAGGATTCCTACTGCTTTAGTGCTAG | 1.02 z-score
TCATCACTCTGTCCCTCACTGTGCTAG | 0.0538 z-score
AACGGTTTCGGGACTGGGGACGTGCTA | 4.49 z-score

Some of these lines once more (series 4):
Sequence | fitted relative affinity
TTAGGGCTGGACACTGGGTTAGTGCTA | -1.23 z-score
TCACCAATCTCTCTTCAACTGTGCTAG | 2.42 z-score
TTAGGACTGCTTTTCCGTTAGTGCTAG | 0.0185 z-score
AAATGTGTTAGAAACAGGTTGTGCTAG | 0.216 z-score
